Assay results collected from several papers.
Each line is one published result; not all experiments were run side by side. ± marks the error that the study gave. Values after ≈ are worked out from the molar mass of the structure shown.

CN1C[C@H](COc2nccc3c(NCc4ccco4)cc(Cl)nc23)OC1=O
general condition (rat Crl:CD(SD) male; oral, 1000 mg/kg, single dose): negative

Cc1cccc(CNC(=O)c2cn(CCNC(=O)c3ccccc3Sc3c([N+](=O)[O-])ncn3C)c3cc4c(cc3c2=O)OC(F)(F)O4)n1
AUC(0-inf) (Sprague-Dawley rat, male, plasma; intravenous, 5 mg/kg of parent compound): 329 ± 8.72 ng·h/mL

Cc1ccc(Sc2ccccc2N2CCNCC2)c(C)c1
participants with TEAE (item: protein in urine; healthy adult men; oral, 20 mg daily, 12 days): 16.7%

N#C[C@@]1(c2ccc3c(N)ncnn23)O[C@H](CO)[C@@H](O)[C@H]1O
recovery (plasma protein binding; monkey plasma; 100 µM, time not given): 97.1%

COc1cc(NC(=O)CSc2nncn2C)cc(OC)c1OC
thermodynamic solubility (aqueous buffer; pH 7.4): 4120 µM (≈ 1390 µg/mL)

CNCc1ccc(-c2[nH]c3cc(F)cc4c3c2CCNC4=O)cc1
patients with adverse event (item: Dizziness; human patients; oral, 600 mg twice daily, grade 3): 0%

COc1ccc2c(c1)CN(C(=O)CCN1CCC(Cc3ccccc3)CC1)CC[S@@+]2[O-]
fu (rat plasma; 100 ng/mL): 0.255

C[C@@H](N)C1CCN(S(=O)(=O)c2cccc3cnccc23)CC1
incidence of syncope (healthy volunteers; oral, 75 mg, single ascending dose, fasted): 0%

Cc1ccc([C@@H]2O[C@H](CO)[C@@H](O)[C@H](O)[C@H]2O)cc1Cc1ccc(-c2ccc(F)cc2)s1
urinary phosphate excretion change (item: inorganic phosphorus; Japanese type 2 diabetes patients; 100 mg, day 3, 24 h urine collection; baseline: baseline): -123 mg

CN(C(=O)n1cnc(-c2ccc[n+]([O-])c2)c1)[C@H]1CC[C@H](O)CC1
tissue concentration (rat, hippocampus; oral, 10 mg/kg single dose, 4 h): 14.1 ± 0.5 ng/g

CCc1ccc(-c2ccc(-c3cc(F)c(F)c(F)c3)c(F)c2)cc1
median fetal accumulation (rat, fetus; 5000 ng/mL in perfusate, high dose, mixture of 21 LCMs): 0.562 ng/g

O=C(N[C@H](Cc1c[nH]c2ccccc12)C(=O)Nc1ccncc1)c1ccc(-c2cc(C(F)(F)F)ccc2F)cc1F
concentration (Swiss Webster mouse, female, muscle; oral, 50 mg/kg, 8 h, 20% HPβCD vehicle): 330 nM

CCCCC1=NC2(CCCC2)C(=O)N1Cc1ccc(-c2ccccc2S(=O)(=O)Nc2noc(C)c2C)c(COCC)c1
AUC(0-inf) (healthy adult volunteers, plasma; oral, 50 mg, single dose, fasted, crushed tablet): 12000 ng·h/mL

Cc1nc2cccc(OCC(C)(C)C(=O)NC(C)C)c2c(N)c1C(=O)O
mean body weight change (Swiss albino CD-1 mouse; oral, 500 mg/kg, 48 h): 1.1 ± 0.6 g

CCN1CCN(Cc2ccc(NC(=O)c3ccc(C)c(NC(=O)c4cncc(-c5cccs5)c4)c3)cc2C(F)(F)F)CC1
extrapolated AUC share (C57BL/6 mice, plasma; intraperitoneal, 15 mg/kg): 8.93%

Cc1ccc(C(=O)N(CCCN)C(c2nc3snc(C)c3c(=O)n2Cc2ccccc2)C(C)C)cc1 (stereo not drawn)
grade ≥3 fatigue patients (human patients; intravenous, 2 mg/day): 17%

Cn1ccnc1CNc1nc(-c2ccccn2)nc2ccccc12
kinetic solubility (Japanese Pharmacopoeia disintegration test solution 2; pH 6.8): 80 µg/mL

c1csc(CNc2cc[nH]n2)c1
tail DNA (mean) (DNA damage, alkaline comet; Hsd:ICR(CD-1) mice, female, liver; oral gavage, 500 mg/kg/day, 3 days): 1.6%

CCc1ccc(C(=O)Oc2ccc(C#N)c(F)c2)cc1
median placental accumulation (Sprague-Dawley rat, female, placenta; 5000 ng/mL in perfusate, 50 (unit not given), high dose, mixture of 21 LCMs): 24.7 ng/g

Cn1cc(Nc2nccc(-c3ccc4c(c3)CN(C3COC3)CC[C@H]4NC(=O)c3cn(C(C)(C)C)nn3)n2)cn1
class-switched memory B cell change (human, whole blood; 300 mg twice daily, day 7; baseline: pre-dose baseline): 97.1%

O=C(OC(C(F)(F)F)C(F)(F)F)N1CCN(Cc2cccc(Oc3ccccc3)c2)CC1
k2 (PET blocking study; rhesus monkey, brain Pons; 0.03 mg/kg, compound pretreatment, added: [18F]T-401 tracer): 0.075 min⁻¹

COc1cc2[nH]c(C)c(-c3ccc(OCc4ccccc4)cc3)c(=O)c2cc1Cl
kinetic solubility (pH 7.4): < 2 µM

[18F]c1ccc(-c2ccc3c(c2)[nH]c2ccncc23)cn1
SUV (microPET/CT imaging; APP/PS1 mouse, AD model, heart; intravenous, 5 min): 1.33 ± 0.448

O=S(=O)(NCc1ccccn1)c1ccc(Cl)c(Cl)c1Cl
thermodynamic solubility (aqueous buffer; pH 7.4): 30.4 µM (≈ 10.7 µg/mL)

NC1(C(=O)N[C@@H](CCO)c2ccc(Cl)cc2)CCN(c2nc[nH]c3nccc2-3)CC1
incidence of Stomatitis (metastatic CRPC patients; 320 mg b.i.d., any grade, treatment-related, added: enzalutamide 160 mg daily): 0%

C=CCN1CC(=O)N2[C@@H](Cc3ccc(O)cc3F)C(=O)N(Cc3cccc(N4CC(N5CCN(CC)CC5)C4)n3)C[C@@H]2N1C(=O)NCc1ccccc1
treatment-related decreased appetite (advanced solid tumour patients; oral, 10 mg twice daily, grade ≥3, dose-escalation): 0%

OC[C@H]1O[C@@H](Oc2cc3c(O)cc(O)cc3[o+]c2-c2ccc(O)c(O)c2)[C@H](O)[C@@H](O)[C@@H]1O
hue angle (CIELAB from visible spectra; aqueous buffer; 50 µM, pH 7, ±BSA 600 µM or lysozyme 1000 µM): 17.8 ± 0.93 degrees

O=C(COc1ccc(Cl)cc1)NC12CC(c3nnc([C@H]4C[C@@H](OC(F)(F)F)C4)o3)(C1)C2
adverse event incidence (item: Fatigue; human; oral, 260 mg once daily, 14 days): 28.6%

N#CCNC(=O)c1ccc(-c2ccnc(Nc3ccc(N4CCOCC4)cc3)n2)cc1
AUCinf decrease (healthy volunteers, plasma; oral, dose not given, added: rifampin multiple-dose; baseline: compound alone): 15%

COc1ccc2[nH]c([S+]([O-])Cc3ncc(C)c(OC)c3C)nc2c1 (stereo not drawn)
AUC(0-t) (healthy Chinese volunteers, plasma; oral, 20 mg, fed, CYP2C19 intermediate metabolizers): 672 ± 484 ng·h/mL

Cc1cc(-c2nccc3c2ccn3CC(=O)Nc2ccc(-c3cnccn3)cn2)ccn1
subjects with gastrointestinal disorders TEAEs (human; SAD part, single 40 mg dose): 16.7%

CN1C(=O)[C@@H](NC(=O)c2nnc(Cc3ccccc3)[nH]2)COc2cccnc21
medical device site reaction incidence (phase I single ascending dose; human, male and female; oral, 100 mg, fasted): 0%

O=c1[nH]c(=O)n([C@H]2C[C@H](O)[C@@H](CO)O2)cc1CCCCC[18F]
time to peak radioactivity (PET; nude mice, RG2 tumour xenograft, tumour; intravenous, dose not given): 15 min

N#Cc1ccc2c(c1)[C@H]1CCCN(C(=O)c3ccc4[nH]cnc4c3)[C@H]1C2
minimum ACTH level (human; 20 mg, day 15): 3.5 pmol/L

CCOc1c([C@H](C)n2nc(C)c3c(N)ncnc32)cc(Cl)c(F)c1[C@@H]1CNC(=O)C1
AUC(0-last) (patients, monotherapy; oral, 10 mg once daily, cycle 1 day 1): 3.26 ± 1.46 µM·h

CCNCCCNC/C=C\CNCCCNCC
AUMC(0-inf) (LC-MS/MS; human cancer patients, plasma; intravenous infusion 60 min, 200 mg, median, cycle 1): 1360 ng·h²/mL

O=C(Nc1nc2cccc(-c3ccc(CN4CCS(=O)(=O)CC4)cc3)n2n1)C1CC1
patients with Nausea (rheumatoid arthritis patients; oral, 100 mg twice daily, 4 weeks, TEAE regardless of relatedness): 16.7%

O=C(Nc1cnccc1Cl)N1CCN(Cc2ccc3c(c2)OC(F)(F)O3)CC1
back pain incidence (multiple ascending dose; young women; 100 mg, treatment-emergent adverse events): 33.3%

CCN1/C(=C/C(C)=O)Sc2ccc(F)cc21
QTc interval (Bazett) (cynomolgus monkey; oral, 30 mg/kg, 4 h post-dose): 329 ± 11 ms

C[C@H]1CN(C(=O)CC#N)[C@]12CCN(c1ncnc3[nH]ccc13)C2
half-life, mean (healthy adults, plasma; oral, 6 mg single dose): 2.9 h

COc1cccc(OC)c1-c1cc(C(=O)NC2(C(=O)O)C3CC4CC(C3)CC2C4)nn1-c1ccc(C(=O)N(C)CCCN(C)CCCN(C)C(=O)CN2CCN(CC(=O)[O-])CCN(CC(=O)[O-])CCN(CC(=O)[O-])CC2)cc1C(C)C.[177Lu+3] (stereo not drawn)
tumour-to-liver ratio (mouse, HT-29 xenograft; 72 h post injection, biodistribution; baseline: tumour over liver uptake): 17.6

FC(F)(F)c1ccc(CNc2ccc(Cc3c[nH]c4ncc(Cl)cc34)cn2)cn1
treatment-related adverse events (item: mucosal inflammation; human, advanced solid tumours, non-TGCT cohort; oral, 1000 mg/day, any grade): 4%

Excerpt of the above:
CCN1CCN(Cc2ccc(NC(=O)c3ccc(C)c(NC(=O)c4cncc(-c5cccs5)c4)c3)cc2C(F)(F)F)CC1
extrapolated AUC share (C57BL/6 mice, plasma; intraperitoneal, 15 mg/kg): 8.93%

Cc1ccc(C(=O)N(CCCN)C(c2nc3snc(C)c3c(=O)n2Cc2ccccc2)C(C)C)cc1 (stereo not drawn)
grade ≥3 fatigue patients (human patients; intravenous, 2 mg/day): 17%

Cn1ccnc1CNc1nc(-c2ccccn2)nc2ccccc12
kinetic solubility (Japanese Pharmacopoeia disintegration test solution 2; pH 6.8): 80 µg/mL

c1csc(CNc2cc[nH]n2)c1
tail DNA (mean) (DNA damage, alkaline comet; Hsd:ICR(CD-1) mice, female, liver; oral gavage, 500 mg/kg/day, 3 days): 1.6%

CCc1ccc(C(=O)Oc2ccc(C#N)c(F)c2)cc1
median placental accumulation (Sprague-Dawley rat, female, placenta; 5000 ng/mL in perfusate, 50 (unit not given), high dose, mixture of 21 LCMs): 24.7 ng/g
